# Results pooled from the literature.
# Lines come from different studies, so protocols differ. ± marks the error that the study gave.
# UniProt Q14680, sequence (whole entry, looked up): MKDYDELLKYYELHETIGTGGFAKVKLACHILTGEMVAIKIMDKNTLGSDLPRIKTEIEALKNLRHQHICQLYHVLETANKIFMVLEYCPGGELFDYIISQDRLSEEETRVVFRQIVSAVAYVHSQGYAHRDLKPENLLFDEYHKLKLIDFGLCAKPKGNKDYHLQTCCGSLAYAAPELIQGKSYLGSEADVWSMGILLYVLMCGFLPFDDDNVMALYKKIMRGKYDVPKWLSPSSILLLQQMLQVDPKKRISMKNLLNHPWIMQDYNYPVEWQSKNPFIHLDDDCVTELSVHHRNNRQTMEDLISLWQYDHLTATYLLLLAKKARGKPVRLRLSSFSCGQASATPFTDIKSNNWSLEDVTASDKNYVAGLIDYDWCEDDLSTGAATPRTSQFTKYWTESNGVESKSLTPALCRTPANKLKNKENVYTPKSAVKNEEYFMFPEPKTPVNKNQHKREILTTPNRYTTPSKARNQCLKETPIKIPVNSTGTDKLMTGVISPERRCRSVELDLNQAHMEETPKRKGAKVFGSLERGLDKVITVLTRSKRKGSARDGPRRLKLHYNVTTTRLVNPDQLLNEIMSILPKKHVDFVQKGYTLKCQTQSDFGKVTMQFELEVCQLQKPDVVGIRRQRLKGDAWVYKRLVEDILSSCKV
Structure (SMILES),target or system,assay,test system,setting,scale,measurement,result
OC(CCN1CC=C(c2ccc(F)cc2)CC1)c1ccc(F)c2ccccc12 (stereo not shown),Salmonella typhimurium,SOS/umu test,TA1535/pSK1002,"0.063 mg/mL, 4 h, without S9, full range",,survival,43.6%
[Cl-].[Cl-].[Pt+2].[Ru+2].c1ccc(-c2nccnc2-c2ccccn2)nc1.c1cnc2c(c1)ccc1cccnc12.c1cnc2c(c1)ccc1cccnc12,Danio rerio,,embryos,"60 µM, 48 h",,survival rate,60 ± 3.1%
CNC(=O)c1c(N(C)N=O)ncn1C,Salmonella typhimurium,"mutagenicity, Ames plate incorporation",TA100,"1500 µg/plate, without S9, methanol",,revertant colonies per plate,119 ± 4
CC[C@H](C)[C@@H]1NC(=O)[C@@H]2CCCN2C(=O)[C@H](CC(C)C)NC(=O)[C@H](CC(C)C)NC(=O)CNC(=O)[C@@H](NC(=O)[C@@H](NC(=O)[C@H](CC(=O)O)NC(=O)CNC(=O)[C@@H](NC(=O)[C@H](C)NC(=O)CNC(=O)[C@H](CCCCN)NC(=O)[C@H](CC(C)C)NC(=O)[C@H](CC(C)C)NC(=O)[C@H](CCCCN)NC(=O)CNC(=O)[C@@H](NC(=O)[C@@H](N)CC(C)C)C(C)C)C(C)C)C(C)C)CSSC[C@@H](C(=O)O)NC1=O,,"RNA-seq, measured: Ptprc mRNA","mouse traumatic brain injury, frontal cortex and hippocampus",dose not given,baseline: TBI plus compound vs TBI,log2 fold change,-2.27
COc1ccnc(C(=O)N[C@H]2COC(=O)[C@H](Cc3ccccc3)[C@@H](OC(=O)C(C)C)[C@H](C)OC2=O)c1OCOC(=O)C(C)C,Cyprinus carpio,mortality,,"water exposure, flow-through, 96 h",,LC50,5.41 ng/mL
CC(=O)N1CCC(C(=O)N2CCN3C(=O)c4cc(-c5ccccc5)ccc4NC(=O)C3C2)CC1 (stereo not shown),Salmonella typhimurium,,TA1537,"5.0 µg/plate, added: rat liver S9",,revertants per plate,20
CN1CC[C@@H](c2c(O)cc(O)c3c(=O)cc(-c4ccc(C(F)(F)F)cc4Cl)oc23)[C@@H]1CO,,,"human, relapsed/refractory hematologic malignancies","oral, dose not given, of 9 patients discontinued",,discontinuations unrelated to treatment,6 cases
C[C@@H](O)[C@@H](CO)NC(=O)[C@@H](CCCNC(=N)N)NC(=O)[C@@H]1CCCN1C(=O)[C@@H]1CSSC[C@H](NC(=O)[C@H](Cc2ccccc2)NC(=O)CN2CCN(CC(=O)O)CCN(CC(=O)O)CCN(CC(=O)O)CC2)C(=O)N[C@@H](Cc2ccc(O)cc2)C(=O)N[C@@H](Cc2ccccc2)C(=O)N[C@@H](CCC(N)=O)C(=O)N[C@@H](CC(N)=O)C(=O)N1 [gallium-68 labelled],,,"Wistar rat, spleen","intravenous, 8 MBq, 120 min, group mean",,tissue uptake,0.07 %ID/g
COc1ccc(C[C@H](NC(=O)[C@H](C)NC(=O)CN2CCOCC2)C(=O)N[C@@H](Cc2ccccc2)C(=O)C2(C)CO2)cc1 (stereo in doubt),Plasmodium falciparum,,"Cam WT, artemisinin-sensitive",,baseline: HEK-293T CC50 over IC50,selectivity ratio,> 2240
O=[N+]([O-])c1ccc(N2CCN(CCC(O)c3ccc(F)cc3)CC2)c(C(F)(F)F)c1 (stereo not shown),Salmonella typhimurium,"genotoxicity, SOS/umu test",TA1535/pSK1002,"0.125 mg/mL, 4 h, with S9, lower range",,induction factor,0.3
COc1cc2c(Oc3ccc4[nH]c(C)cc4c3F)ccnc2cc1OCC1(N)CC1,,,paediatric recurrent refractory sarcoma,12 mg,,grade 1 or 2 Epistaxis,18.2%
O=[N+]([O-])c1ccc(N2CCC(NCCC(O)c3ccc(F)c4ccccc34)CC2)c(C(F)(F)F)c1 (stereo not shown),Salmonella typhimurium,SOS/umu test,TA1535/pSK1002,"0.001 mg/mL, 4 h, without S9, lower range",,survival,108%
COc1cccc(-c2n[nH]c(SCc3ccccn3)n2)c1OC,Escherichia coli,"Ames test, preincubation",WP2 uvrA,"0.25 mg/plate, with rat liver S9",,revertant colonies per plate,24
C[C@H]1CN(c2n[nH]c3nc(N[C@H]4CC[C@H](NS(=O)(=O)CCC(F)(F)F)CC4)ncc23)CCO1,"MELK (Homo sapiens, UniProt Q14680)","inhibitor, Kinobeads competition profiling",,0.032 µM,baseline: vehicle,relative abundance,1.03
Cc1cc(C(=O)NC(C)(C)COc2cccc3c2C(N)=NS(=O)(=O)N3)cc(C)n1,Salmonella typhimurium,"Ames test, initial",TA1537,15.0 µg/plate,baseline: solvent control,revertant ratio,1
[Cl-].[Cl-].[Pt+2].[Ru+2].c1ccc(-c2nc3cc4ccccc4cc3nc2-c2ccccn2)nc1.c1cnc2c(c1)ccc1cccnc12.c1cnc2c(c1)ccc1cccnc12,Danio rerio,,embryos,"30 µM, 0 h",,survival rate,100%
CO[C@H]1C[C@@H]2CC[C@@H](C)[C@@](O)(O2)C(=O)C(=O)N2CCCC[C@H]2C(=O)O[C@H]([C@H](C)C[C@@H]2CC[C@@H](OC(=O)NCCOCCOCCOCCOCCOCCOCCOCCOCCC(=O)N3CCc4cc(Cn5nc(-c6ccc7oc(N)nc7c6)c6c(N)ncnc65)ccc4C3)[C@H](OC)C2)C[C@@H](O)[C@H](C)/C=C(\C)[C@@H](O)[C@@H](OC)C(=O)[C@H](C)C[C@H](C)/C=C/C=C/C=C/1C,,"phase 1 dose escalation, measured: rash",advanced solid tumour patients,"intravenous, 6 mg weekly, grade ≥3",,TRAE incidence,8.3%
[Cl-].[Cl-].[Pt+2].[Ru+2].c1ccc(-c2nc3ccccc3nc2-c2ccccn2)nc1.c1cnc2c(c1)ccc1cccnc12.c1cnc2c(c1)ccc1cccnc12,Danio rerio,,embryos,"90 µM, 48 h",,survival rate,50 ± 2.6%
CCCC[C@H](NC(=O)C1CN(C)C1)c1ncc(-c2cc3ccccc3nc2OC)[nH]1,Salmonella enterica serovar Typhimurium,,"TA1535, TA98, TA100","without S9, toxicity-limited",,highest non-mutagenic dose,100 to 300 µg/plate
Nc1nc2c(ncn2COCCO)c(=O)[nH]1,Herpes simplex virus 2,,"Vero, compound-resistant",,baseline: CC50 over IC50,therapeutic index,3.92
CC[C@H](C)[C@H](NC(=O)[C@H](Cc1ccccc1)NC(=O)[C@H](CCC(=O)O)NC(=O)[C@H](CCCNC(=N)N)NC(=O)[C@H](C)NC(=O)[C@H](C)NC(=O)[C@H](CCC(N)=O)NC(=O)[C@H](CCC(=O)O)NC(=O)[C@H](CCC(=O)O)NC(=O)[C@H](CC(C)C)NC(=O)[C@H](Cc1ccc(O)cc1)NC(=O)[C@H](CO)NC(=O)[C@H](CO)NC(=O)[C@@H](NC(=O)[C@H](CC(=O)O)NC(=O)[C@H](CO)NC(=O)[C@@H](NC(=O)[C@H](Cc1ccccc1)NC(=O)[C@@H](NC(=O)CNC(=O)[C@H](CCC(=O)O)NC(=O)[C@H](C)NC(=O)CCc1c[nH]cn1)[C@@H](C)O)[C@@H](C)O)C(C)C)C(=O)N[C@@H](C)C(=O)N[C@@H](Cc1c[nH]c2ccccc12)C(=O)N[C@@H](CC(C)C)C(=O)N[C@H](C(=O)N[C@@H](CCCNC(=N)N)C(=O)NCC(=O)N[C@@H](CCCNC(=N)N)C(=O)N[C@@H](CCCCNC(=O)COCCOCCNC(=O)COCCOCCNC(=O)CC[C@H](NC(=O)CCCCCCCCCCCCCCCCC(=O)O)C(=O)O)C(=O)NCC(=O)NCC(=O)N[C@@H](CO)C(=O)N[C@@H](CCCCNc1c(NCCCCCN(O)C(=O)CCC(=O)NCCCCCN(O)C(=O)CCC(=O)NCCCCCN(O)C(C)=O)c(=O)c1=O)C(=O)O)C(C)C [zirconium-89 labelled],,,"rat, spleen","iv, 3 nmol/kg, 24 h, ex vivo",,tissue uptake,0.49 %ID/g
O=[N+]([O-])c1ccc(NC2CCNCC2)c(C(F)(F)F)c1,Salmonella typhimurium,"genotoxicity, SOS/umu test",TA1535/pSK1002,"0.063 mg/mL, 4 h, with S9, full range",,induction factor,0.6

# For quick reference, copied from above:
Structure (SMILES),target or system,assay,test system,setting,scale,measurement,result
COc1cccc(-c2n[nH]c(SCc3ccccn3)n2)c1OC,Escherichia coli,"Ames test, preincubation",WP2 uvrA,"0.25 mg/plate, with rat liver S9",,revertant colonies per plate,24
O=[N+]([O-])c1ccc(N2CCC(NCCC(O)c3ccc(F)c4ccccc34)CC2)c(C(F)(F)F)c1 (stereo not shown),Salmonella typhimurium,SOS/umu test,TA1535/pSK1002,"0.001 mg/mL, 4 h, without S9, lower range",,survival,108%
